Measured values pooled from the literature.
Lines come from different studies, so protocols differ.
Cell line: A-375

CC(C)c1ccc(N(C)c2ccc3c(c2)OCC[C@H]3CNc2cnccc2C(=O)O)cc1 — IC50 (cell growth or viability, ATP luminescence; 7 days): 10.6 nM
CCOc1cncc(-c2ccc(NC(=O)C3(c4ccnc(NS(=O)(=O)C5CC5)n4)CCOCC3)nc2)n1 — IC50 (cell growth or viability, ATP luminescence; 72 h): 93 nM
[Cl][Au-]1([Cl])[c]2ccccc2Cc2cccc[n+]21 — IC50 (cell growth or viability, resazurin; 72 h): 7000 nM
CC(C)=CC1OC(C)(C)C2C=C3C(=O)C(Cl)=CC(O)C3C3C(O)C4OC4C(=O)C132 (stereo not drawn) — IC50 (cell growth or viability, MTS): 880 nM
CCN(C(=O)c1cc(F)ccc1Oc1nncnc1N1CCC2(C1)CN([C@H](CCCN(C)CCOC)C(C)C)C2)C(C)C — GI50 (cell growth or viability; 72 h): > 10000 nM
CNS(=O)(=O)Nc1nccc(Cc2c(C)c3ccc(Oc4ncccc4F)cc3oc2=O)c1F — IC50 (cell viability; 7 days): 2.3 nM
[Cl-].[Cl-].[Ru+2].c1cc(-c2ccc3cccnc3n2)nc(-c2ccc3cccnc3n2)c1.c1ccc2cc3nc4c5cccnc5c5ncccc5c4nc3cc2c1 — phototoxicity index (resazurin; together with: light 523 nm, 100 J/cm2; baseline: dark EC50 over light EC50): 5
CC(C)(C)c1cnc(CSc2cnc(NC(=O)C3CCN(C(=O)CCCCCCN4Cc5cc6c(cc5C4)C(=O)N(C4CCC(=O)NC4=O)C6=O)CC3)s2)o1 (stereo not drawn) — IC50 (cell growth or viability, MTT): 237 nM
CC(C)(C)c1cc(-c2ccc3cccnc3n2)nc(-c2ccc3cccnc3n2)c1.[Cl-].[Cl-].[Ru+2].c1ccc2cc3nc4c5cccnc5c5ncccc5c4nc3cc2c1 — phototoxicity index (resazurin; together with: light 733 nm, 100 J/cm2; baseline: dark EC50 over light EC50): 3
Cc1ccc2[c](c1)[Au-]([Cl])([Cl])[n+]1ccccc1-2 — IC50 (cell growth or viability, resazurin; 72 h): 5000 nM
CC(C)(C)c1cc(-c2ccc3cc4ccccc4nc3n2)nc(-c2ccc3cc4ccccc4nc3n2)c1.[Cl-].[Cl-].[Ru+2].c1ccc2cc3nc4c5cccnc5c5ncccc5c4nc3cc2c1 — phototoxicity index (resazurin; together with: light 733 nm, 100 J/cm2; baseline: dark EC50 over light EC50): 1
NC(=O)c1ccc(-c2ccccc2Cl)c2c3c([nH]c12)CC[C@H](N)C3 — IC50 (cell growth or viability): 24.8 nM
